Published values gathered from unrelated publications.
Each numbered part is a random draw from the data of one study; scales do not carry over between parts.
Sequence of UniProt P42336 (whole entry, unmodified, looked up): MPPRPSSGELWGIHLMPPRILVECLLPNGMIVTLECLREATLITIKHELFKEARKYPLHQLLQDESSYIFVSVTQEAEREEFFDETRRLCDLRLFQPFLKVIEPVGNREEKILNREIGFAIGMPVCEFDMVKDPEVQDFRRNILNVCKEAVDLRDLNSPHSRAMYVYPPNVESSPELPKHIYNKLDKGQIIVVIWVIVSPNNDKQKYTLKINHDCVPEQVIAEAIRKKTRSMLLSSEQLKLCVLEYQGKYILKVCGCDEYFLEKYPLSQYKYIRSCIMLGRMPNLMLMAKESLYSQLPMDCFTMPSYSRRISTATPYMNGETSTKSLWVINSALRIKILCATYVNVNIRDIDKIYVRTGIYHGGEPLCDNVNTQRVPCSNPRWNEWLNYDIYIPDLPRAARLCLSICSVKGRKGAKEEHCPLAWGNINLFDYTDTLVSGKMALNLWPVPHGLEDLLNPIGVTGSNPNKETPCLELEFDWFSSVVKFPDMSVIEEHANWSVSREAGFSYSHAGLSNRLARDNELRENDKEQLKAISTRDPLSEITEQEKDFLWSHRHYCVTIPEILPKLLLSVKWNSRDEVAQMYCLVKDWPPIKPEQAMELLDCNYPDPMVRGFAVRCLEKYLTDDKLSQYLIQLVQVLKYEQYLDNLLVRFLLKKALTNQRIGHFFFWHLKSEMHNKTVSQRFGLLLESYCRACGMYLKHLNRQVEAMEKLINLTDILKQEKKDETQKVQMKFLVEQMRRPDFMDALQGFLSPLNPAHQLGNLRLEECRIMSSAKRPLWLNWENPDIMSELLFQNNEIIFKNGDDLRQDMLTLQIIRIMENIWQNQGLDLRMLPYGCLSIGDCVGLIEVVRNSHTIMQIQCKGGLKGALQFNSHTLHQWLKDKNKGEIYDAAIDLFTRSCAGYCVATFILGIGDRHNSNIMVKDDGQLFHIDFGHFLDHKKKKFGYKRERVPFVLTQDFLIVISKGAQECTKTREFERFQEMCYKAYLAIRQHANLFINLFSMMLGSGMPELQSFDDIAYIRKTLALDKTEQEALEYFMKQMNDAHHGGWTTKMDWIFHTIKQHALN
Sequence of UniProt Q9HAZ1 (whole entry, looked up): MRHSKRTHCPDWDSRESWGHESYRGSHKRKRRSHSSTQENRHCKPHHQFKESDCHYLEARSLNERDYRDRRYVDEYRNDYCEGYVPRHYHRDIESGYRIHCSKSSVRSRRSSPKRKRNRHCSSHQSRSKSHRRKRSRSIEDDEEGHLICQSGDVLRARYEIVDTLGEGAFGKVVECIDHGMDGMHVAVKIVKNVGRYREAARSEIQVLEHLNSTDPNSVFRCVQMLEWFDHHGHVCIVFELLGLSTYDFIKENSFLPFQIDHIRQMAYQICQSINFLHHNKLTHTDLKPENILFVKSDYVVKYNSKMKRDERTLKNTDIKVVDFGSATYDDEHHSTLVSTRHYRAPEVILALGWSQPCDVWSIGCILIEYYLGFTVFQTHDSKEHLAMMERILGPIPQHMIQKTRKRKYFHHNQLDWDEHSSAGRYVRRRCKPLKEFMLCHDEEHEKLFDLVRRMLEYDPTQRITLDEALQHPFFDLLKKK
Sequence of UniProt Q16832 (whole entry, looked up): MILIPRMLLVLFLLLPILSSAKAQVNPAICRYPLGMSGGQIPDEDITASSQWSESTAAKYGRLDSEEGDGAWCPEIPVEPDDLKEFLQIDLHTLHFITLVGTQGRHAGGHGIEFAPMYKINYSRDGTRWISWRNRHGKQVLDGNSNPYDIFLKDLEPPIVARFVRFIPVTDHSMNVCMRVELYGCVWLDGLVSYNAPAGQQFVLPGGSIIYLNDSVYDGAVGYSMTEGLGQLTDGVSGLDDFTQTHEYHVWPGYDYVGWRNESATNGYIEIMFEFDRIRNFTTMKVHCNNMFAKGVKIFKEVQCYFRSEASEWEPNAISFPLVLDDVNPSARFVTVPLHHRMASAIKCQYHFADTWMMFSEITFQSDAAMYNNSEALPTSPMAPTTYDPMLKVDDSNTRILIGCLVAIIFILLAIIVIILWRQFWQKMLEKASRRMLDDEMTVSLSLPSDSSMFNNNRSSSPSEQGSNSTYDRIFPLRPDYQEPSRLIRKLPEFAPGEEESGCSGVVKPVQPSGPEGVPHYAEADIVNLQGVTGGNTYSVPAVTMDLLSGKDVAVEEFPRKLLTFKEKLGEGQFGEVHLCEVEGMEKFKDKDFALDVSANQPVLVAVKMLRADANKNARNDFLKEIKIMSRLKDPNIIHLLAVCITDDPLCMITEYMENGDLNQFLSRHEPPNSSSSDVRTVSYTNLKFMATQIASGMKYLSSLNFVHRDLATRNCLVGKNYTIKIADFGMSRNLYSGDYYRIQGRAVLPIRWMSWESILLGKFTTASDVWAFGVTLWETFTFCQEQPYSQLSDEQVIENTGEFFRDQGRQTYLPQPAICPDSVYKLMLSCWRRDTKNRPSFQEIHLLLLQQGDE
Sequence of UniProt Q15759 (whole entry, looked up): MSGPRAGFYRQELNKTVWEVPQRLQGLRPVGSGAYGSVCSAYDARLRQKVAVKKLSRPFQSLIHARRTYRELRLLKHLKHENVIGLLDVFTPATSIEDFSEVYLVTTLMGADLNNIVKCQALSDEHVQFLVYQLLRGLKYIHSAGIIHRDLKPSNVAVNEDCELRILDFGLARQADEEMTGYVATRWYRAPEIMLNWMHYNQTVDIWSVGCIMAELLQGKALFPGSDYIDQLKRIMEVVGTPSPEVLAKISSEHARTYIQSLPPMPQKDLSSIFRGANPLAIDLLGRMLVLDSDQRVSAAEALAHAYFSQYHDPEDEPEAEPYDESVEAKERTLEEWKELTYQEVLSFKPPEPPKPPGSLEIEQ
Sequence of UniProt P51956 (whole entry, looked up): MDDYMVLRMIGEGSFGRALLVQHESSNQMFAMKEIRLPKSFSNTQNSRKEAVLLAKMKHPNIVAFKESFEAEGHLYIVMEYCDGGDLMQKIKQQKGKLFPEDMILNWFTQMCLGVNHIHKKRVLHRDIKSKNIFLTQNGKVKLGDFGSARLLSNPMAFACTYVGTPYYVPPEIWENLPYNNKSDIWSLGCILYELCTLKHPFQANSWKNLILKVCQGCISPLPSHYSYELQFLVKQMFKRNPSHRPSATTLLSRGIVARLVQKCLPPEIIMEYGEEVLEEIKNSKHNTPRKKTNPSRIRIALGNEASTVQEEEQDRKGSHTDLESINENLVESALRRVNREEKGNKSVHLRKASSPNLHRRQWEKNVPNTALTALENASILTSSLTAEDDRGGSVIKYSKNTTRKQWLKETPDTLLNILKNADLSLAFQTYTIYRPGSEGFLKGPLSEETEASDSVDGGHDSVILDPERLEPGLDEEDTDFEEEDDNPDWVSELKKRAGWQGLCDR
Sequence of UniProt Q16566 (whole entry, looked up): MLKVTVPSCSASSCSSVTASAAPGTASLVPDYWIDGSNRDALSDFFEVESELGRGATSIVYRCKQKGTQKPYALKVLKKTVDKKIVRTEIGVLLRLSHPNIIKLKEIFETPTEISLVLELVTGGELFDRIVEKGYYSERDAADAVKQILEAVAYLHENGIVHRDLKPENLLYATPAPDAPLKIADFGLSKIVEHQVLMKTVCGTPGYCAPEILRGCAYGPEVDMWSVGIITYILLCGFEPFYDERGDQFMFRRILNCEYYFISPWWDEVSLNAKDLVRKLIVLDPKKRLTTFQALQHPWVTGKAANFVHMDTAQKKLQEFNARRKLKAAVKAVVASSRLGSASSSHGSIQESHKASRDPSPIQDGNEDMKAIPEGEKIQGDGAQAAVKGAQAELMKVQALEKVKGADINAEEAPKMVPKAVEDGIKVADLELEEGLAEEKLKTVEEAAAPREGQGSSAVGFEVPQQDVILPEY
Sequence of UniProt P49761 (whole entry, looked up): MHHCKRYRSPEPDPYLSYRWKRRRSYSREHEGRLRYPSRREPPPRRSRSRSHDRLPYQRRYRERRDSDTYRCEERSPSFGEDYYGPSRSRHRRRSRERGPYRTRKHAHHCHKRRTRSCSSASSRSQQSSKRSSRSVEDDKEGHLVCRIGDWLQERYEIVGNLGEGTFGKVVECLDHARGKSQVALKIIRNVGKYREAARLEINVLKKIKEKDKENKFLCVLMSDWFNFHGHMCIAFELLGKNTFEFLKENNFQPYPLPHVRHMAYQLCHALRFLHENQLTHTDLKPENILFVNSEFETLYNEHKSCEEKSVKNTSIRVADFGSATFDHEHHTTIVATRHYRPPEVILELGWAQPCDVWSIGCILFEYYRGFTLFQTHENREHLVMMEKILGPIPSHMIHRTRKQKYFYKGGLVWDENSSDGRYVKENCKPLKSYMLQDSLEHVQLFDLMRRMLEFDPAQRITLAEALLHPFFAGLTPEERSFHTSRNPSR
Sequence of UniProt Q52WX2 (whole entry, looked up): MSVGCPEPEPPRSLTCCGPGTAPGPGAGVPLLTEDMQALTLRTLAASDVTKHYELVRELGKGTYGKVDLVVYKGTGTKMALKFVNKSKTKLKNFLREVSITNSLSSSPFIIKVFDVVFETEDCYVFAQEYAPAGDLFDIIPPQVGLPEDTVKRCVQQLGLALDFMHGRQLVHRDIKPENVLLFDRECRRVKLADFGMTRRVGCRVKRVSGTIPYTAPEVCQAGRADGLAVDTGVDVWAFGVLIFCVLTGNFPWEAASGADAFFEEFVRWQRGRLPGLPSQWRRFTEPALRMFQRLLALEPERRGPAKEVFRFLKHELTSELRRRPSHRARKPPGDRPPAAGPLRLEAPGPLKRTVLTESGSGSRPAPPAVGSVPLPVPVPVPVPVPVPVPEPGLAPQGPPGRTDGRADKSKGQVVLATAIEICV

Set 1
Target: RING finger protein unkempt homolog, zinc fingers 1-6, GST-SBP tag (UNK, Homo sapiens, UniProt Q9C0B0, residues 30-357)
Sequence of UniProt Q9C0B0 (30-357, looked up): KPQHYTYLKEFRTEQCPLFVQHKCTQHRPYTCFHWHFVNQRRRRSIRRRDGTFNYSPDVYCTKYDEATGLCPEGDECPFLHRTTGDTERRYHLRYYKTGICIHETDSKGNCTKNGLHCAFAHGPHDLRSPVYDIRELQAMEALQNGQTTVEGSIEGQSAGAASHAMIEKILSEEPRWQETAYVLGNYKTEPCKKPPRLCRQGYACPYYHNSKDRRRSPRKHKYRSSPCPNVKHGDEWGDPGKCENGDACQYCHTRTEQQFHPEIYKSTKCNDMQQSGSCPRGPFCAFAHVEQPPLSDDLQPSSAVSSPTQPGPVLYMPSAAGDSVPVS
Method: RNA Bind-n-Seq
Form: RNA
Sample: in vitro
Concentration: not given
Notes: RNA with constant flanks, human and mouse sites, ends assumed
Relative to: input RNA pool
Direction: higher = stronger binding
Shared flanks, not repeated: GGGAGUUCUACAGUCCGACGAUC … CAACAGAGGAUUGAGCAUCA
| Sequence | bound/input enrichment [ratio] |
| --- | --- |
| UGGCGGAGGCUGGGAUGGAUUCCCUAAGCCAAGCCUGCCCAGCUAAUGAGCUGUUUGACGUUGAACUUGAAAGCUUUCCCCUCCCUCUAAGAUGAUGUAGGUACUUGAGGUUUGGGUUAA | 0.291 |
| GGGCACUGCAGCGUUGGAACGUGAGCCUCGGAUUUCCUGGCCCCUCUACUGUAAAUGUGCCUUAGCCUAAGCCUCCCAUCCUGUGUUAGCGUUGCCUGGUGCGGGGCAGGGCCUAACAAG | 0.185 |
| UGUAGUCAGUGUGGAAGAGCCUUCAGCCAGAAGCAAUACCUCAUUAAACACCAGAAUAUCCAUAGUGGGAAGAAACCUUUUAAGUGUAAUGAGUGUGGUAAGGCUUUUAGCCAGAAAGAA | 0.187 |
| UUGAAAGUGUUAUAUCAGUACAAGGAAAAACAAUAUAUGGCGCCUCGAGUUUUACAGCAGACAUUAAAUUAUAUUAAUCAAGGAGUUUCCCAUGCACUUACGUGGAAGAACCUGAAGCCC | 0.478 |
| UUUUCUUUUGGAGGCGGAUUGUUUGAUGAUAUGUUUGAAGACAUGGAGAAAAUGUUUUCUUUUAGUGGCUUUGAUACCACCAAUCGACACACAGUACAGACUGAAAAUAGAUUUCAUGGA | 0.203 |
| AAAGCCUUCAUUAAACUUCCUGACAACCAUCACAUCAGCAACGUGACUGGCUAUCUAACAGUUCUACACCAGUUUUUAAAGGUGGACAGUUUUCUGCCUGCGACUGGAGUCACUUAUAAA | 0.132 |
| AACAAAAAUCAAGAGAAUGUUUCUCAUCUCUCAGUUUCUUCUGCUUCACCAACAUCAUCUGUAGCAUCAGCUGCAGGAAGCAUAACAAGCUCUAGUCUGCAGAAAUCUCCUACAUUGCUC | 0.144 |
| UGUGUGAUGCUUGUCUCUAAUUUGCCUAAUAAAGGAUAUUCUGUAGAAGAAGUUUAUGACUUAGCAAAACCAUUUGGUGGUUUAAAGGAUAUCUUGAUUUUAUCAUCUCAUAAAAAGGCA | 0.434 |

Set 2
SMILES: C[C@@H](N)[C@H]1CC[C@H](C(=O)Nc2ccncc2)CC1
Read-out: enzyme activity
Action: inhibitor
Concentration: 0.5 µM
Relative to: control
| target | remaining activity [%] |
| --- | --- |
| DDR2 (Homo sapiens, UniProt Q16832) | 92 |
| CLK3 (Homo sapiens, UniProt P49761) | 98.6 |
| MAPK11 (Homo sapiens, UniProt Q15759) | 96.7 |
| GRK4 (Homo sapiens, UniProt P32298) | 94.6 |
| CDC42BPB (Homo sapiens, UniProt Q9Y5S2) | 99.3 |
| CAMK4 (Homo sapiens, UniProt Q16566) | 93.7 |
| DCLK2 (Homo sapiens, UniProt Q8N568) | 96.7 |
| PAK3 (Homo sapiens, UniProt O75914) | 96.5 |
| Cyclin-dependent kinase 1, with cyclin A (CDK1, Homo sapiens, UniProt P06493) | 84.9 |
| TLK2 (Homo sapiens, UniProt Q86UE8) | 96.9 |
| CLK4 (Homo sapiens, UniProt Q9HAZ1) | 87.3 |
| AKT2 (Homo sapiens, UniProt P31751) | 92 |
| PRKG2 (Homo sapiens, UniProt Q13237) | 85.2 |

Set 3
SMILES: COCCOc1nc(-c2ccc(Cl)nc2)nc2c1CN(C(=O)c1ncn3ccccc13)CC2
Read-out: cell-free assay
Method: competition with immobilised ligand
Concentration: 0.1 µM
| target | remaining binding |
| --- | --- |
| NEK3 (Homo sapiens, UniProt P51956) | 100% |
| PRKACB (Homo sapiens, UniProt P22694) | 73% |
| STK26 (Homo sapiens, UniProt Q9P289) | 100% |
| MAP3K20 (Homo sapiens, UniProt Q9NYL2) | 100% |
| PLK2 (Homo sapiens, UniProt Q9NYY3) | 100% |
| PIK3CA (Homo sapiens, UniProt P42336, Q546K) | 87% |
| Tyrosine-protein kinase ABL1, phosphorylated (ABL1, Homo sapiens, UniProt P00519, Q252H) | 81% |
| EGFR (Homo sapiens, UniProt P00533, del746-750) | 100% |
| PAK1 (Homo sapiens, UniProt Q13153) | 100% |
| PIK3CA (Homo sapiens, UniProt P42336) | 85% |
| NTRK1 (Homo sapiens, UniProt P04629) | 100% |
| TNK1 (Homo sapiens, UniProt Q13470) | 100% |
| PRKAA1 (Homo sapiens, UniProt Q13131) | 100% |
| SBK1 (Homo sapiens, UniProt Q52WX2) | 100% |

Other studies, line by line
| SMILES | system | conditions | endpoint | value |
| --- | --- | --- | --- | --- |
| CC(C)n1cnc(-c2ccc(F)cc2)c1-c1ncc(C(=O)Nc2ccc(N3CCN(C)CC3)cc2)[nH]1 | human, idiopathic pulmonary fibrosis | 30 mg once daily, trial, treatment-emergent | patients with Headache | 0% |

Excerpt of the above (set 1):
| Sequence | bound/input enrichment [ratio] |
| --- | --- |
| UGGCGGAGGCUGGGAUGGAUUCCCUAAGCCAAGCCUGCCCAGCUAAUGAGCUGUUUGACGUUGAACUUGAAAGCUUUCCCCUCCCUCUAAGAUGAUGUAGGUACUUGAGGUUUGGGUUAA | 0.291 |
| GGGCACUGCAGCGUUGGAACGUGAGCCUCGGAUUUCCUGGCCCCUCUACUGUAAAUGUGCCUUAGCCUAAGCCUCCCAUCCUGUGUUAGCGUUGCCUGGUGCGGGGCAGGGCCUAACAAG | 0.185 |
| UGUAGUCAGUGUGGAAGAGCCUUCAGCCAGAAGCAAUACCUCAUUAAACACCAGAAUAUCCAUAGUGGGAAGAAACCUUUUAAGUGUAAUGAGUGUGGUAAGGCUUUUAGCCAGAAAGAA | 0.187 |
| UUGAAAGUGUUAUAUCAGUACAAGGAAAAACAAUAUAUGGCGCCUCGAGUUUUACAGCAGACAUUAAAUUAUAUUAAUCAAGGAGUUUCCCAUGCACUUACGUGGAAGAACCUGAAGCCC | 0.478 |
| UUUUCUUUUGGAGGCGGAUUGUUUGAUGAUAUGUUUGAAGACAUGGAGAAAAUGUUUUCUUUUAGUGGCUUUGAUACCACCAAUCGACACACAGUACAGACUGAAAAUAGAUUUCAUGGA | 0.203 |
